Published values gathered from unrelated publications.
Protocols differ between the studies behind these lines.
Target: 5-hydroxytryptamine receptor 2A (HTR2A, Homo sapiens, UniProt P28223)
Chain of UniProt P28223 (whole entry, looked up): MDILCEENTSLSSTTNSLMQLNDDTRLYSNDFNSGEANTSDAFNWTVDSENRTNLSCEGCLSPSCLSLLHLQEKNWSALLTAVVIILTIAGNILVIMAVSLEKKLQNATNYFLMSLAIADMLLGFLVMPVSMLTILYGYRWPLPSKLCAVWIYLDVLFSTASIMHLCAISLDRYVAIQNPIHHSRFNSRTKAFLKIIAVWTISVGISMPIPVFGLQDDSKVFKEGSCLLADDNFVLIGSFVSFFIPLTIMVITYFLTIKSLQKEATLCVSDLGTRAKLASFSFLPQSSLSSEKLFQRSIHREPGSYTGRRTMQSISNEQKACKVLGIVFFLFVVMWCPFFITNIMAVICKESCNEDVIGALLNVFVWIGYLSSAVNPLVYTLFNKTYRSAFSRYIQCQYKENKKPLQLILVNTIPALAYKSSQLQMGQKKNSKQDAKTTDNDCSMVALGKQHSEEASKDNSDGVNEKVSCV

Cc1cc(C2=CCN(CC3OCCO3)CC2)cc([N+](=O)[O-])c1N has an EC50 of 1150 nM (calcium signal, agonist).
COc1c(OCCOCCOCCOCCOCCOc2cccc(C(=O)C3CCN(CCc4ccc(F)cc4)CC3)c2OC)cccc1C(=O)C1CCN(CCc2ccc(F)cc2)CC1 gave a Ki of 3.4 nM (ligand displacement, radioligand).
COc1ccc2[nH]cc(CC(C)N)c2c1 (stereo not shown) gave a Ki of 3.12 nM (ligand displacement in cells, radioligand).
NCC1CC1c1cc(O)ccc1OCC1CC1 (single isomer, unassigned; (+)) gave an EC50 of 372 nM (calcium signal, agonist).
The Ki of CC1(CCN2CCc3ccccc3C2)Cc2cc(Cl)ccc2C1=O (single isomer, unassigned) is reported as 729 nM (ligand displacement, radioligand).
With COc1c(O)cccc1C(=O)C1CCN(CCc2ccc(F)cc2)CC1 the Ki was 1.6 nM (ligand displacement, radioligand).
For CCCCN(CCCC)CCc1c[nH]c2ccccc12, the Ki was 823 nM (ligand displacement in cells, radioligand).
C/C=C1/CN2CCc3c([nH]c4ccccc34)[C@@H]2C[C@@H]1/C(=C\OC)C(=O)OC has an IC50 of 197 nM (ligand displacement, radioligand; cell membranes).
With COc1cc(C(CN)OC)c(OC)cc1C (stereo not shown) the Ki was 1.91 nM (ligand displacement in cells, radioligand).
CC(=O)Oc1cccc2[nH]cc(CC[N+](C)(C)C)c12 has a Ki of > 10000 nM (ligand displacement, radioligand; cell membranes).
With C/C(=N\OCCCN1CCCCC1)c1ccc(C(F)(F)F)cc1 the IC50 was 1620 nM (inositol phosphate, antagonist).
CN1CCC=C(c2cc(F)cc3[nH]ccc23)C1 gave a Ki of 207 nM (ligand displacement, radioligand; cell membranes).
COc1c(OCCOCCOCCOCCOc2cccc(C(=O)C3CCN(CCc4ccc(F)cc4)CC3)c2OC)cccc1C(=O)C1CCN(CCc2ccc(F)cc2)CC1 gave a Ki of 5.8 nM (ligand displacement, radioligand).

Repeated from above:
CC(=O)Oc1cccc2[nH]cc(CC[N+](C)(C)C)c12 has a Ki of > 10000 nM (ligand displacement, radioligand; cell membranes).
With C/C(=N\OCCCN1CCCCC1)c1ccc(C(F)(F)F)cc1 the IC50 was 1620 nM (inositol phosphate, antagonist).
